Experimental data from different studies.
Protocols differ between the studies behind these lines. Numbers after ± are the reported error. ≈ marks a conversion by molar mass, not a printed value.
Cell line: MCF7

CCOC(=O)C1=C(COCc2cn(CCN3C(=O)C(=O)c4cc(Cl)ccc43)nn2)N=C2Sc3ccccc3N2C1c1cccc(Cl)c1 (stereo not shown) — viability (MTT; 100 µM, 48 h): ~52%
CCCCCCCCC=CCCCCCCCC(=O)OC(COC(=O)Cc1c(C)n(C(=O)c2ccc(Cl)cc2)c2ccc(OC)cc12)COP(=O)([O-])OCC[N+](C)(C)C (stereo not shown) — selectivity index (SRB; reference: MCF-10A IC50 over MCF7 IC50): 3.12
Cc1cc(C)n2c1C=C1C=CC(CCC(=O)NCCCCCC(=O)NCCOCCOCCOCCOCCOCCOCCNC(=O)[C@H](Cc3c[nH]c4ccccc34)NC(=O)[C@@H](CC(C)C)NC(=O)[C@H](Cc3c[nH]c4ccccc34)NC(=O)[C@@H](CC(C)C)NC(=O)[C@H](Cc3c[nH]c4ccccc34)NC(=O)[C@@H](CC(C)C)NC(=O)[C@H](Cc3c[nH]c4ccccc34)NC(=O)[C@H](NC(=O)[C@@H](NC(=O)[C@H](NC(=O)[C@H](C)NC(=O)[C@@H](CC(C)C)NC(=O)[C@H](C)NC(=O)CNC(=O)[C@@H](NC=O)C(C)C)C(C)C)C(C)C)C(C)C)=[N+]1[B-]2(F)F — LC50 (sulforhodamine B; 48 h): > 3000 nM
C#CCOCC1=C(C(=O)OCC)C(c2cccc(Cl)c2)N2C(=N1)Sc1ccccc12 (stereo not shown) — viability (MTT; 100 µM, 48 h): ~52%
CC(=O)N[C@H](CCCNC(=N)N)C(=O)N[C@H](CCCCN)C(=O)N[C@H](Cc1ccc(O)cc1)C(=O)N[C@H](CS)C(N)=O — inhibition (colony formation; 50 nM, 24 h): ≤ 50%
CC[C@H](C)[C@H](NC(=O)CNC(=O)[C@H](Cc1ccc(O)cc1)NC(=O)[C@H](CO)NC(=O)[C@H](Cc1ccc(O)cc1)NC(=O)[C@@H](NC(=O)[C@H](CC(=O)O)NC(=O)[C@H](CO)NC(=O)[C@H](CCC(N)=O)NC(=O)[C@H](Cc1ccccc1)NC(=O)[C@H](CO)NC(=O)[C@H](Cc1ccccc1)NC(=O)[C@@H]1CCCN1C(=O)[C@H](CC(N)=O)NC(=O)[C@H](CC(N)=O)NC(=O)[C@H](CC(=O)O)NC(=O)[C@H](CCC(N)=O)NC(=O)[C@@H]1CCCN1C(=O)[C@H](CCCNC(=N)N)NC(=O)[C@H](CCCNC(=N)N)NC(=O)[C@H](CCCNC(=N)N)NC(=O)[C@H](CCC(N)=O)NC(=O)[C@H](CCCNC(=N)N)NC(=O)[C@H](CCCNC(=N)N)NC(=O)[C@H](CCCCN)NC(=O)[C@H](CCCCN)NC(=O)[C@H](CCCNC(=N)N)NC(=O)CN)C(C)C)C(=O)N[C@H](C(=O)N[C@@H](CC(C)C)C(N)=O)C(C)C — late apoptotic cells (annexin V/7-AAD flow cytometry; 50 µM, 48 h): 64.3%
O=C1c2ccccc2C(=O)c2c1ccc1c2C(C(=O)Nc2ccccc2)C(=O)C1c1ccccc1 (stereo not shown) — CC50 (cytotoxicity): 46.4 ± 0.05 µg/mL (≈ 101 µM)
Cc1cc(C)n2c1C=C1C=CC(CCC(=O)NCCCCCC(=O)NCCOCCOCCOCCOCCOCCOCCNC(=O)[C@H](Cc3c[nH]c4ccccc34)NC(=O)[C@@H](CC(C)C)NC(=O)[C@H](Cc3c[nH]c4ccccc34)NC(=O)[C@@H](CC(C)C)NC(=O)[C@H](Cc3c[nH]c4ccccc34)NC(=O)[C@@H](CC(C)C)NC(=O)[C@H](Cc3c[nH]c4ccccc34)NC(=O)[C@H](NC(=O)[C@@H](NC(=O)[C@H](NC(=O)[C@H](C)NC(=O)[C@@H](CC(C)C)NC(=O)[C@H](C)NC(=O)CNC(=O)[C@@H](NC=O)C(C)C)C(C)C)C(C)C)[C@H](C)O)=[N+]1[B-]2(F)F — GI50 (cell growth or viability, SRB; 48 h): 2800 nM
C=CC[P](c1ccccc1)(c1ccccc1)[Pt]([S]c1ccccn1)([S]c1ccccn1)[P](CC=C)(c1ccccc1)c1ccccc1 — early apoptotic cells (annexin V/7-AAD flow cytometry; 2.5 µM): 11%
CC(=O)N[C@@H](CCCNC(=N)N)C(=O)N[C@@H](CCCNC(=N)N)C(=O)N[C@@H](CCCNC(=N)N)C(=O)N[C@@H](CCCNC(=N)N)C(=O)N[C@@H](CCCNC(=N)N)C(=O)N[C@@H](CCCNC(=N)N)C(=O)N[C@@H](CCCNC(=N)N)C(=O)N[C@@H](CCCNC(=N)N)C(=O)N[C@@H](CCCNC(=N)N)C(=O)N[C@@H](CCCNC(=N)N)C(=O)NCC(=O)N[C@@H](COP(=O)(O)O)C(=O)N1CCC[C@H]1C(=O)N[C@H](C(=O)N[C@@H](Cc1ccccc1)C(=O)O)[C@@H](C)O — G2/M cells (flow cytometry; 100 µM, 24 h): 23.9 ± 2.23%
CC(=O)N1CCCC[C@H]1C(=O)NC(C)(C)C(=O)N1CCCC[C@H]1C(=O)NC(C)(C)C(=O)NC(C)(C)C(=O)N[C@@H](CC(C)C)C(=O)NC[C@@H](C)C(=O)NCC(=O)NC(C)(C)C(=O)NC(C)(C)C(=O)N1CCCC[C@H]1C(=O)NC(C)(C)C(=O)NCC(=O)N[C@@H](CC(C)C)C(=O)NC(C)(C)C(=O)N[C@@H](CC(C)C)C[N+]1=C2CCCN2CCC1 — GI50 (cell growth or viability, SRB; 48 h): 30 nM
O=C1c2ccccc2C(=O)c2c1ccc1c2C(C(=O)Nc2ccc(Br)cc2)C(=O)C1c1ccccc1 (stereo not shown) — CC50 (cytotoxicity): 55.34 ± 0.05 µg/mL (≈ 103 µM)
C[C@@H](N)[C@H](O)CCCCCCCC(=O)CCCCCCCCCCCCCC[C@@H](O[C@@H]1O[C@H](CO)[C@H](O)[C@H](O)[C@H]1O)[C@H](N)CO — selectivity ratio (reference: IC50 MCF-12A over IC50 MCF7): 2.3
O=C1c2ccccc2C(=O)c2c1ccc1c2C(C(=O)NCc2ccccc2)C(=O)C1c1ccccc1 (stereo not shown) — CC50 (cytotoxicity): 26.1 ± 0.85 µg/mL (≈ 55.2 µM)
C[C@H](N)[C@@H](CCCCCCCCCCCCCCC(=O)CCCCCCC[C@@H](O)[C@@H](C)N)O[C@@H]1O[C@H](CO)[C@H](O)[C@H](O)[C@H]1O — selectivity ratio (reference: IC50 MCF-12A over IC50 MCF7): 3.2
CC(=O)N1CCCC[C@H]1C(=O)NC(C)(C)C(=O)N1CCCC[C@H]1C(=O)NC(C)(C)C(=O)NC(C)(C)C(=O)N[C@@H](CC(C)C)C(=O)N[C@H](C)CC(=O)NCC(=O)NC(C)(C)C(=O)NC(C)(C)C(=O)N1CCCC[C@H]1C(=O)NC(C)(C)C(=O)NCC(=O)N[C@@H](CC(C)C)C(=O)NC(C)(C)C(=O)N[C@@H](CC(C)C)C[N+]1=C2CCCN2CCC1 — GI50 (cell growth or viability, SRB; 48 h): 173 nM
CN1C(=O)C2(Cc3ccc(CC45SSC(CO)(C(=O)N4C)N(C)C5=O)cc3)SSC1(CO)C(=O)N2C (racemic) — mRNA level inhibition (qRT-PCR, refers to: LOX; 600 nM, hypoxia): 94%
O=C1c2ccccc2C(=O)c2c1ccc1c2C(C(=O)Nc2ccccc2Cl)C(=O)C1c1ccccc1 (stereo not shown) — CC50 (cytotoxicity): 52.67 ± 0.02 µg/mL (≈ 107 µM)
CC1=CCC23OC2(C)CCC2C(C[N+](C)(C)C)C(=O)OC2C13.[I-] (stereo not shown) — inhibition (cell growth or viability, SRB; 8.3 µM): 70.6%
CC(C)C[C@@H](NC(=O)[C@H](C)NC(=O)CNC(=O)[C@@H](NC=O)C(C)C)C(=O)N[C@@H](C)C(=O)N[C@@H](C(=O)N[C@H](C(=O)N[C@@H](C(=O)N[C@@H](Cc1c[nH]c2ccccc12)C(=O)N[C@H](CC(C)C)C(=O)N[C@@H](Cc1c[nH]c2ccccc12)C(=O)N[C@H](CC(C)C)C(=O)N[C@@H](Cc1c[nH]c2ccccc12)C(=O)N[C@H](CC(C)C)C(=O)N[C@@H](Cc1c[nH]c2ccccc12)C(=O)NCCO)C(C)C)C(C)C)C(C)C — LC50 (sulforhodamine B; 48 h): > 5000 nM
COc1ccc(NC(=O)C2C(=O)C(c3ccccc3)c3ccc4c(c32)C(=O)c2ccccc2C4=O)cc1 (stereo not shown) — CC50 (cytotoxicity): 63.06 ± 0.02 µg/mL (≈ 129 µM)
CC(=O)N1CCCC[C@H]1C(=O)NC(C)(C)C(=O)N1CCCC[C@H]1C(=O)NC(C)(C)C(=O)NC(C)(C)C(=O)N[C@@H](CC(C)C)C(=O)NCCC(=O)NCC(=O)NC(C)(C)C(=O)NC(C)(C)C(=O)N1CCCC[C@H]1C(=O)NC(C)(C)C(=O)NCC(=O)N[C@@H](CC(C)C)C(=O)NC(C)(C)C(=O)N[C@@H](CC(C)C)C[N+]1=C2CCCN2CCC1 — GI50 (cell growth or viability, SRB; 48 h): 37 nM
Cc1nn(-c2ccccc2)c2c1C(c1ccc3c(c1)OCO3)N(C(=O)c1ccncc1)N2 (stereo not shown) — CC50 (cytotoxicity, MTT; 72 h): 69.12 ± 0.11 µg/mL (≈ 162 µM)
CC(=O)N1CCCC[C@H]1C(=O)NC(C)(C)C(=O)N1CCCC[C@H]1C(=O)NC(C)(C)C(=O)NC(C)(C)C(=O)N[C@@H](CC(C)C)C(=O)NCCC(=O)N[C@@H](C)C(=O)NC(C)(C)C(=O)NC(C)(C)C(=O)N1CCCC[C@H]1C(=O)NC(C)(C)C(=O)NCC(=O)N[C@@H](CC(C)C)C(=O)NC(C)(C)C(=O)N[C@@H](CC(C)C)C[N+]1=C2CCCN2CCC1 — GI50 (cell growth or viability, SRB; 48 h): 27 nM
CC[C@@]1(O)C(=O)OCc2c1cc1n(c2=O)Cc2cc3cc(OC(=O)CCCC(=O)NCC(=O)N[C@@H](Cc4ccccc4)C(=O)N[C@@H](Cc4ccccc4)C(=O)N[C@@H](Cc4ccc(OP(=O)(O)O)cc4)C(=O)NCCSSCCNC(=O)CCC(=O)N[C@@H](CCC(=O)O)C(=O)N[C@@H](CCCNC(=N)N)C(=O)NCC(=O)N[C@@H](CC(=O)O)C(=O)O)ccc3nc2-1 — IC50 ratio (cell growth, MTT; 48 h; reference: free hydroxycamptothecin over compound): 3.7 fold

Repeated from above:
CC(=O)N[C@@H](CCCNC(=N)N)C(=O)N[C@@H](CCCNC(=N)N)C(=O)N[C@@H](CCCNC(=N)N)C(=O)N[C@@H](CCCNC(=N)N)C(=O)N[C@@H](CCCNC(=N)N)C(=O)N[C@@H](CCCNC(=N)N)C(=O)N[C@@H](CCCNC(=N)N)C(=O)N[C@@H](CCCNC(=N)N)C(=O)N[C@@H](CCCNC(=N)N)C(=O)N[C@@H](CCCNC(=N)N)C(=O)NCC(=O)N[C@@H](COP(=O)(O)O)C(=O)N1CCC[C@H]1C(=O)N[C@H](C(=O)N[C@@H](Cc1ccccc1)C(=O)O)[C@@H](C)O — G2/M cells (flow cytometry; 100 µM, 24 h): 23.9 ± 2.23%
CC(C)C[C@@H](NC(=O)[C@H](C)NC(=O)CNC(=O)[C@@H](NC=O)C(C)C)C(=O)N[C@@H](C)C(=O)N[C@@H](C(=O)N[C@H](C(=O)N[C@@H](C(=O)N[C@@H](Cc1c[nH]c2ccccc12)C(=O)N[C@H](CC(C)C)C(=O)N[C@@H](Cc1c[nH]c2ccccc12)C(=O)N[C@H](CC(C)C)C(=O)N[C@@H](Cc1c[nH]c2ccccc12)C(=O)N[C@H](CC(C)C)C(=O)N[C@@H](Cc1c[nH]c2ccccc12)C(=O)NCCO)C(C)C)C(C)C)C(C)C — LC50 (sulforhodamine B; 48 h): > 5000 nM
